Measured values from different studies.
Numbered parts are unrelated; each lists some results of a single study.

Set 1 — method: protein-binding microarray; form: double-stranded DNA, one strand shown; matrix: in vitro; tested at: 940 nM top; notes: 60-bp whole probe; added: salmon DNA 0.4 mg/ml; baseline: random background probes; reading: higher = stronger binding; shared flanks, not repeated: GCCTAGCAC … GTCTTGATTCGCTTGACGCTGCTG
Target: Interferon regulatory factor 5, full length, phosphomimetic (IRF5, Homo sapiens, UniProt Q13568-2, residues 1-514, S451D/S453D/S456D/S462D)
Strand | fitted relative affinity [z-score]
TTAGAACTGGGGTTTTGATTAGTGCTA | 0.525
TTAGCTATCGGGTTTCGGTTAGTGCTA | 5.93
GACGGCTTCGGTTTCGGGACGTGCTAG | 3.45
GACGGTTTCTGTATCGGGACGTGCTAG | 5.22
CTCCACTTGTGTTTGGGCATGTGCTAG | -0.318
TTAGTTTTCAGTTTCGATTAGTGCTAG | 9.79
TGAGGACTGGGGACTGGGTTAGTGCTA | -0.588
ATAGGACTGGACACTGGGTTAGTGCTA | -0.0684
AGCACTCTTCTTTTTTTTCTGTGCTAG | 1.76
TCAGTTTCTCCTTTCCAACTGTGCTAG | 5.42
TCAAGTTTCTCCTTTCCACTGTGCTAG | 3.39
TTAGGTATCGGATTCGGTTAGTGCTAG | 4.88
GACGGAATCGGTATCGGGACGTGCTAG | 1.77
GACGGACTGCTACGGCTGACGTGCTAG | -0.418
TTACGACTGGGTCTCGGTTAGTGCTAG | 1.87
GCGCTTCTCGAGTGCCGGCTGGTGCTA | -0.124
GGGTCTTGCAGTATGGAAAGGTGCTAG | -0.26
TTAGGTTTCCTTCTCCTTGAGTGCTAG | 2.19
TTAGGTCTCGCTCTCGGTTAGTGCTAG | 3.84
GACGGTATCCTTCTCCAGACGTGCTAG | 0.705
CTGCCTGCTCAGACTGGGGCGTGCTAG | -0.259
GACGGTTTCCTTATCCAGACGTGCTAG | 1.71
TTAAGTCTCGGTTTCGGTTAGTGCTAG | 11.3
TTAGAACTGGGGTATTGATTAGTGCTA | 0.505

Set 2 — organism: Saccharomyces cerevisiae; effect on: peptide binding; method: yeast competitive growth sequencing; form: peptide; strain: cyclin-Cln2 fusion strain; tested at: concentration not given; notes: library 2; reading: direction not given
Molecule | binding score
LLRRLQDVANDRG | 0.661
LLKRLQDVVSERA | 0.874
GFGFLLFICKLTF | 0.679

Set 3 — method: RNA Bind-n-Seq; form: RNA; matrix: in vitro; tested at: 100 nM; baseline: input RNA pool; reading: higher = stronger binding
Target: RING finger protein unkempt homolog, zinc fingers 1-6, SBP tag (UNK, Homo sapiens, UniProt Q9C0B0, residues 30-357)
Sequence of UniProt Q9C0B0 (30-357, looked up): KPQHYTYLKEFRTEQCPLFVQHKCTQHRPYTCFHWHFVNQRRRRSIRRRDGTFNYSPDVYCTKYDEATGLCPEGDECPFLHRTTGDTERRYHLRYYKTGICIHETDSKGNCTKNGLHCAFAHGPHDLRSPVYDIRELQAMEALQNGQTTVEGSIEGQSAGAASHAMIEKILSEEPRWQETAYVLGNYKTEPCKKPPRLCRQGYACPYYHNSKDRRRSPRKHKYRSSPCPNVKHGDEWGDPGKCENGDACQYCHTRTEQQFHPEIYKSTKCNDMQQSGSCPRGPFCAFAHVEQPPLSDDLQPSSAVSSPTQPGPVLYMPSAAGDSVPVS
Notes: RNA with constant flanks, vertebrate orthologous sites, ends assumed
Shared flanks, not repeated: GGGAGUUCUACAGUCCGACGAUC … CAACAGAGGAUUGAGCAUCA
Strand | bound/input enrichment
AUCACAGUUGCUUUUUACCACCUCAAUGAGGUAGAGUCUCUCUUGGCAUGUGGUUGUUACAAGAGCCAGUCGUACCUGACAAGUCUCUCCACAUUUCAUUUCUUUCACAUUCUUGGUCUU | 0.582 ratio
ACUUAAAAUCUUAAAGAGAUUAUACUGGGAUCUGGACAUUGAUUUUGCAGGGUCAGGCCGUUGGAUAGUGUUGCUGUGUUGUCUUAUGUUUUUUAAGAUCUGUGUACUUUGUCCAAAGUU | 0.595 ratio
UGCACUAGUGCUCUUCUGUGGAAGAGAUGAAUUGUGGAAAACUGUCUCCUUUUUAUAGAUUACUUUGUUUCUAAAUUAUGACCAAAAAUAUUUUGCUAUUUCUUUCUUUAUAUAUGGAAU | 1.13 ratio
GGCCAAACUUAUUUUUUGUUGUUUGUUUUUAACUUUUACUUUACAAAAUUUUUUUGUAGUUCCCUUACCUUGCCACACCAUUUUUAUGUCUCCUUCACUGAAGGGCUAGAGUUUUAACUU | 0.367 ratio
UUCUAGUACUUAAGCCAAUAGUUCUAAAAUGCUAUUUAUUUGUGUCUGUAAGUUUGUACAUAGUAAUUCCAAUCUCAUUGUUGCGGAAUUUUUUCAUGCAUUUGAGUUUUCCUUGAAAUU | 0.458 ratio
GUGACUUUGGGCGUCCGCUCAACCUCUGUGAGGAGAGUUUUUGGUCUGUGGCCUGGCAGACUUGUUUAGUGCUUUCGGACCCGAGUCCUCCACCGUAAACAUGCUCCGCCAGAUCCUGGG | 0.2 ratio
UGUUUUAUGUCUUUGUGGGCAUGGGGGAUCAUGGGGGAUGGGCAGUGGGGGAUUGGAGGCUGGUGUCGUCAUUACCAAGUUUUCUUUUUGUGCUUUGUUUUCCCUUUUAAUUGGUUGCAU | 0.93 ratio
ACCCUGUGCUCCAACUGUAGGAAUUGAUUGGCUUCUUGUAUUCUCUGUGAUCUAUGUCACCAUUUUUAUUGUAUAUGCCACUAUGCAGACGGAAAGUAUUCGUUGGCUUAUUCCUGGGCA | 0.423 ratio
AGUAGUUUUAAGCUUGUUUGCACAGUUCUUUUUUUCCAUUGGAAAUGGAAUUCAUUGCCUUAGGUCUUUUUAAAUAGUGUUAUAUUAUCGUUGGGGCUGGCUCUAUGCUUGAAAACCAGU | 4.09 ratio
GAACCUGUGUGCUGUGUGCGCUGUUGGCCACGUGGCGUCGUUUGAUUUGUGAUCUUGACAUAAUAGAUAGGCUUGUGGUUUUUUAAUUUAAAGAUAUUAAGACUUAAUUCACUAAAAUUU | 0.427 ratio
UUGGGACCAGCUCUCCAAAUAAGAAUAGUAGCAAAAAAAAUAAGCAAAAUGAUAUUUGUAUAGAAAAAACAGAAGCUAAAUCAUGUAAAGUAAAUGCUGCCAACGUAGCAAGCCCUAAAG | 1.55 ratio

Set 4 — method: RNA Bind-n-Seq; form: RNA; matrix: in vitro; tested at: 365 nM; baseline: no-protein control; reading: higher = stronger binding
Target: RNA binding protein fox-1 homolog 2, RRM domain, GST-SBP tag (RBFOX2, Homo sapiens, UniProt O43251-10, residues 100-194)
Notes: natural RNA segment, single round, ends assumed
Shared flanks, not repeated: GGGAGUUCUACAGUCCGACGAUC … UGGAAUUCUCGGGUGCCAA
Construct (chain): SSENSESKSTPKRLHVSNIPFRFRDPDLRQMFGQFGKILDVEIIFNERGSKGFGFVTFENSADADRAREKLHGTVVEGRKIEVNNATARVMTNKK
Strand | RBNS enrichment (R)
GCCCAGCCCAGGGGUGCCGUGGAGGACCACCCUGGCAGAGACAUUGCUGAUCCCUGGCUUGGAGCUCCUUGGGGGCCGGCAGGCCUCGACCCCCACCCUAGGGAAUGCAG | 0.424
GCCAAUUUCUAGGUAAUCUUACUGCUUUGUGGGUUUCUUUCCAUGUACAUCUACCUCUUCCAGCUGUUUUAAGUUUUCUCAAGUCUGUGCCUAUGAAAUCUCAUCCAACU | 0.357
GCAGCCUCCUACGCAGGGUCCACGCCACGUGGCCUGGGCUGCCAUCCUGCCGUCCUCCCACUGGCAUCCUGGCAAGGGGGCGUUGCUUUUCCUGGGCGGCCUUUUAUGUC | 0.269
UAAAAUAAUUUGCUAACUAACUAUUUUGAUUCUUCAGAGAGAACUACUAAUAAAAAUCUAAAAGGUAUGUCUUGGUGUGAUAACUUCUUUAUUACCAAGGCUGUUUUAUG | 0.527
CUUGCUUUCAUUUGAAGUUUGGGUUUGCUUUCUGUGUUCUGUGCGUAUCUUGUUCAGUGUCGUCAAGGUUGGGCUUCACGUCUCACUGCAGUGGAGCGAGCGGACAUUCU | 0.286
CUACUGUGUGUGUGAGAUCCUAUAUACCAGCAUGUACCAAGAAUGUGUGUGUAGUUUUAAUUAUGCUGCAAUGUAUAAUCUGGUGUGUUAUUUAAACAGCACUAGUACUG | 3.78
AAGACCCUACAAUAAGAUUGUUUUAUCUGUACAUUUUUUCAGAUAUUUAACUGUAUAAAAAUGUUCAUUUUACACAAUAUUUAAUUAAAGUAUUUCUUGUCUGUGAAUUU | 0.536
ACCUUGGAAAGUUCACUAAUACUUCGCUCCAAGGCGUCUGUAAAAGAAGAUAUCUUUAUUGGAGCAAUGUUCAUGUGACUGGGAAUGACAGAAGAAUGGGAGAUGAGUAG | 3.16
CUGGAACCUGUCCUGCACUCUUCCUGCAGUUAGGUAACUGGGGGCAUAGUCAUUCCAGUGGAGAGUGGAAGUAACCUCAUGGUGAUUUUUAACCCUAAUUUCUCUCUGAC | 0.297
CAAAAAAAGCAAUCAAAGUCUUACGUCAUAGAGGACCACCUUUUGGAUCAUAAAUUCUUUCCCUAUAACAUUCCUUCUCUGCCUCUCUAUGGCCCACUUUGACCACUAAC | 0.631
UUUGUGAGCUCUGGGCUUGUCUCCAUGGGAACAGGGGUGCCUUCUUAGUGAGCUCAUUUCACACAGAUCGAGGGGGUAUGCGUGGGGGAGUUGUGAGUGAGCUCAGCUCC | 6.25
UGGCCCCACCUCCCUCAAGUCUGCGCCCCGUCCCCAGCCAGACCCACUCGCUGCCGGGACCCUUUCACUGCCCCGGUGGAGUGAAUAGAGGAUGAGGGGCCCUGACCCUG | 0.318

A few entries again (set 1):
Strand | fitted relative affinity [z-score]
TCAAGTTTCTCCTTTCCACTGTGCTAG | 3.39
TTAGGTATCGGATTCGGTTAGTGCTAG | 4.88
GACGGAATCGGTATCGGGACGTGCTAG | 1.77
GACGGACTGCTACGGCTGACGTGCTAG | -0.418
TTACGACTGGGTCTCGGTTAGTGCTAG | 1.87
GCGCTTCTCGAGTGCCGGCTGGTGCTA | -0.124
